Published values of several laboratories.
Lines come from different studies, so protocols differ. ± marks the error that the study gave.
B1: enzyme Y105A (Streptomyces parvus, UniProt A0A7K3RVR3); chain MYVPEQYRPRDASWTLELIRSNPLALLVTNGPQHPWATHVPVLFAEEPDGPEGPDGLDATGDDLVGRRLLGHLNLMNPHWEALAGAGHALLVFQGPGSYVSPTVAETAPAAPTWDFTSVHVHGALRLIDDPDDLRKIVQATVRAYEREVGTDWDMSESLEYFERLLPGVRGFEIKIESVDSMFKLSQEQLPETVTKVIDSFRRSDGGRRQELATMIERAASD
B2: enzyme Y7A (Streptomyces parvus, UniProt A0A7K3RVR3); chain MYVPEQARPRDASWTLELIRSNPLALLVTNGPQHPWATHVPVLFAEEPDGPEGPDGLDATGDDLVGRRLLGHLNLMNPHWEALAGAGHALLVFQGPGSYVSPTVYETAPAAPTWDFTSVHVHGALRLIDDPDDLRKIVQATVRAYEREVGTDWDMSESLEYFERLLPGVRGFEIKIESVDSMFKLSQEQLPETVTKVIDSFRRSDGGRRQELATMIERAASD
B3: enzyme T113A (Streptomyces parvus, UniProt A0A7K3RVR3); chain MYVPEQYRPRDASWTLELIRSNPLALLVTNGPQHPWATHVPVLFAEEPDGPEGPDGLDATGDDLVGRRLLGHLNLMNPHWEALAGAGHALLVFQGPGSYVSPTVYETAPAAPAWDFTSVHVHGALRLIDDPDDLRKIVQATVRAYEREVGTDWDMSESLEYFERLLPGVRGFEIKIESVDSMFKLSQEQLPETVTKVIDSFRRSDGGRRQELATMIERAASD
UniProt P46734, sequence (whole entry, looked up): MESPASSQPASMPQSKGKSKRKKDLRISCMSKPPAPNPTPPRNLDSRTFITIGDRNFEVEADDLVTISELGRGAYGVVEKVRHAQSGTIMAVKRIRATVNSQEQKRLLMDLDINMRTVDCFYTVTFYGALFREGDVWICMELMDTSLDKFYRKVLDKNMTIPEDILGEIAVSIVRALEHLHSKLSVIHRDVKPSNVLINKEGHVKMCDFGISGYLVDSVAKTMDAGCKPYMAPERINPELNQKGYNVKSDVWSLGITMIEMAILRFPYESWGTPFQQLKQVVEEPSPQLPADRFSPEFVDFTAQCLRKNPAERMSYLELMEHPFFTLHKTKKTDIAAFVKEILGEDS
UniProt Q07912, sequence (whole entry, looked up): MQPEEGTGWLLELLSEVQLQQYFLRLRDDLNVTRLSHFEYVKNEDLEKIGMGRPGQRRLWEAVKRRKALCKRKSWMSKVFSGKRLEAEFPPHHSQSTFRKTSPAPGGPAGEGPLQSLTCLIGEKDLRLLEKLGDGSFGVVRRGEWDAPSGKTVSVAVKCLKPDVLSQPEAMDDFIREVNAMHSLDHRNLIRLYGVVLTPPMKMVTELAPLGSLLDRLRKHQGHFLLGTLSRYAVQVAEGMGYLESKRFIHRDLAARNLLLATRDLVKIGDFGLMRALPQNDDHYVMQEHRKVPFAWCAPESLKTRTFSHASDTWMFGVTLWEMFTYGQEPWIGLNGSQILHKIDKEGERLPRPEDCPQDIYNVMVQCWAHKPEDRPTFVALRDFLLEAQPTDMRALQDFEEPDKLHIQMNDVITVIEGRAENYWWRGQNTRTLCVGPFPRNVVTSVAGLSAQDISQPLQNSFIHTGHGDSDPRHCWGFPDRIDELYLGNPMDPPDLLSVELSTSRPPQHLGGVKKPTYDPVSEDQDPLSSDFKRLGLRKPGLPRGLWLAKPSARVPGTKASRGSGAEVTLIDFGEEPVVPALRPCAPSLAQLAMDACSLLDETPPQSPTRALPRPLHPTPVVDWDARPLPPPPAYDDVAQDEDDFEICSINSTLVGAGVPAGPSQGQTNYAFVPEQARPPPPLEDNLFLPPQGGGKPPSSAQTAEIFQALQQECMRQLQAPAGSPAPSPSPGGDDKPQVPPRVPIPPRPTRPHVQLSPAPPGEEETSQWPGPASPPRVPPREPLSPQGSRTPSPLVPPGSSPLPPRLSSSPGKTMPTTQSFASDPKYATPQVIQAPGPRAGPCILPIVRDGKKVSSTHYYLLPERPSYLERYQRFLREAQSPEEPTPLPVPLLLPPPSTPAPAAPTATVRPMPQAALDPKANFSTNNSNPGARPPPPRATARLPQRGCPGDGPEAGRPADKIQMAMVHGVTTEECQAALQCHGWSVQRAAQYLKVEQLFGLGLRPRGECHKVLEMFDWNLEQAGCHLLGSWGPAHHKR

CC[C@H](C)[C@@H]([C@@H](CC(=O)N1CCC[C@H]1[C@H](OC)[C@@H](C)C(=O)N[C@H](C)[C@@H](O)c1ccccc1)OC)N(C)C(=O)[C@@H](NC(=O)[C@H](C(C)C)N(C)C(=O)OCc1ccc(NC(=O)[C@H](CCCNC(N)=O)NC(=O)[C@@H](NC(=O)CCCCCN2C(=O)CC(SC[C@H](NC(=O)[C@H](CC(=O)O)NC(=O)[C@H](Cc3ccc(O)cc3)NC(=O)[C@H](Cc3c[nH]c4ccccc34)NC(=O)[C@@H](N)CCCNC(=N)N)C(=O)O)C2=O)C(C)C)cc1)C(C)C (stereo partly drawn) — result for concentration: “not detected” (C57BL/6 mouse, healthy, liver; intraperitoneal, 2.5 mg/kg, 0.167 h).
Under “maximum metastasis uptake”, CC[C@H](C)[C@H](NC(=O)[C@H](CO)NC(=O)[C@H](Cc1ccc(O)cc1)NC(=O)[C@H](Cc1ccc(O)cc1)NC(=O)[C@H](CC(N)=O)NC(=O)CNC(=O)[C@H](CO)NC(=O)[C@H](Cc1ccc(O)cc1)NC(=O)[C@H](CO)NC(=O)[C@H](CO)NC(=O)[C@H](CC(N)=O)NC(=O)COCCOCCNC(=O)CN1CCN(CC(=O)O)CCN(CC(=O)O)CCN(CC(=O)O)CC1)C(=O)N[C@@H](CC(C)C)C(N)=O [copper-64 labelled] is recorded as 27.9 %IA/cc (dynamic PET; tamoxifen-induced PDAC mouse model, metastases; 3.5 min, CLDN4-expressing tumours).
The kcat of `B1 (enzyme Y105A)` is reported as 0.948 s⁻¹ (N[C@@H](CCCNO)C(=O)O; steady-state kinetics; pH 8, 25 °C, with: heme).
With N=C(N)NCCC[C@@H]1NC(=O)[C@H](CCCCNC(=O)CCC(NC(=S)Nc2ccc(CC3CN(CC(=O)O)CCN(CC(=O)O)CCN(CC(=O)O)CCN3CC(=O)O)cc2)C(=O)NCCCC[C@@H]2NC(=O)[C@@H](Cc3ccc(O)cc3)NC(=O)[C@H](CC(=O)O)NC(=O)CNC(=O)[C@H](CCCNC(=N)N)NC2=O)NC(=O)[C@@H](Cc2ccc(O)cc2)NC(=O)[C@H](CC(=O)O)NC(=O)CNC1=O (stereo partly drawn) [scandium-44 labelled] the tissue uptake was 0.64 ± 0.33 %ID/g (ex vivo γ-counting; female athymic nude mice, U-87 MG xenograft, skin; intravenous, 4 h).
CC(C)C[C@H](NC(=O)[C@@H](N)Cc1ccccc1)C(=O)N[C@@H](C)C(=O)N[C@H]1CSCc2cccc(n2)CSC[C@@H](C(=O)N[C@H](C(=O)NCC(=O)N[C@@H](CO)C(=O)N[C@@H](Cc2c[nH]c3ccccc23)C(=O)N[C@@H](CCCCNC(=O)CN2CCN(CC(=O)O)CCN(CC(=O)O)CCN(CC(=O)O)CC2)C(N)=O)[C@@H](C)O)NC(=O)[C@H](Cc2c[nH]cn2)NC(=O)[C@H]([C@@H](C)O)NC(=O)[C@H](CCC(=O)O)NC(=O)[C@@H]2CCCN2C1=O [lutetium-177 labelled] has an intact fraction of > 99% (radio-HPLC; PBS; 2 h, 37 °C).
`B2 (enzyme Y7A)` gave a kcat of 0.193 s⁻¹ (N[C@@H](CCCNO)C(=O)O; steady-state kinetics; pH 8, 25 °C, with: heme).
The tissue uptake of CCCC[C@H](NC(=O)CN1CCC(NC(=O)CN2CCN(CC(N)=O)CCN(CC(N)=O)CCN(CC(N)=O)CC2)CC1)C(=O)N[C@H]1CC(=O)NCCCC[C@@H](C(N)=O)NC(=O)[C@H](Cc2c[nH]c3ccccc23)NC(=O)[C@H](CCCNC(=N)N)NC(=O)[C@@H](Cc2ccccc2)NC(=O)[C@H](Cc2c[nH]cn2)NC1=O [lead-203 labelled] is reported as 1.54 ± 0.3 %ID/g (male C57BL/6J mice B16-F10 tumour, bone; intravenous, 20 pmol, 2 h).
The viability of CC[C@H](C)[C@H](NC(=O)[C@H](CCC(N)=O)NC(=O)[C@H](Cc1c[nH]cn1)NC(=O)[C@@H](NC(=O)[C@H](Cc1c[nH]c2ccccc12)NC(=O)[C@H](CO)NC(=O)[C@H](CCC(N)=O)NC(=O)[C@@H]1CCCN1C(=O)[C@H](Cc1c[nH]cn1)NC(=O)[C@@H](NC(=O)[C@H](CCCNC(=N)N)NC(=O)[C@H](CC(C)C)NC(=O)[C@H](Cc1ccc(O)cc1)NC(=O)[C@H](CCCNC(=N)N)NC(=O)[C@@H](NC(=O)[C@H](CS)NC(=O)[C@H](CCCCN)NC(=O)[C@H](Cc1ccccc1)NC(=O)[C@@H](NC(=O)[C@H](CCCCN)NC(=O)[C@H]1CC[C@H](CN)CC1)[C@@H](C)O)[C@@H](C)O)[C@@H](C)CC)C(C)C)C(=O)O is reported as 5 to 10% (HUVEC; MTT; 1.0 mg/ml, 24 h, 37 °C).
The relative abundance of COc1ccccc1-c1n[nH]c2nc(NC3CCN(C(=O)Cc4ccc(F)cc4F)CC3)ncc12 is reported as 0.11 (bead binding, competition bead pull-down, item: LINJ.32.0800; Leishmania donovani axenic amastigote extract; 10 µM; reference: vehicle).
For CC(C)[C@H]1NC(=O)C[C@H]2/C=C/CCSSC[C@@H](NC1=O)C(=O)N[C@H](Cc1cccc3ccccc13)C(=O)NCC(=O)O2, the inhibition was 1.2% (MAP2K3 (Homo sapiens, UniProt P46734); enzyme activity, inhibitor; 10 µM).
CS(C)(=O)=Nc1ccc(-c2ccc(-c3nc4cc(O[C@@H]5CO[C@H]6[C@@H]5OC[C@H]6O)[nH]c4cc3F)cc2)cc1 gave an inhibition of 4% (TNK2 (Homo sapiens, UniProt Q07912); enzyme activity, inhibitor; 10 µM).
CC(C)(C)C(=O)OCOP(=O)(OCOC(=O)C(C)(C)C)C1CCCN(O)C1=O (stereo not drawn) has a TGI of 2300 nM (CCRF-CEM; cell growth).
The potassium of O=C1NC2(CC2)COc2ncc(F)cc2[C@H]2COCCN2c2ccn3ncc1c3n2 is reported as 3.95 ± 0.24 mmol/L (Sprague-Dawley rat, female, serum; oral, 2.5 mg/kg/day, 4 weeks daily, end of recovery period).
`B3 (enzyme T113A)` has a kcat of 0.101 s⁻¹ (N[C@@H](CCCNO)C(=O)O; steady-state kinetics; pH 8, 25 °C, with: heme).
With CC(=O)N[C@@H](CC(C)C)C(=O)N[C@H](C(=O)N[C@@H](Cc1ccccc1)C(=O)N[C@]1(C)CCCCCC/C=C/CCC[C@@](C)(C(=O)N[C@@H](C)C(=O)N[C@@H](C)C(=O)N[C@@H](C)C(=O)N[C@@H](C)C(=O)N[C@@H](C)C(=O)N[C@H](C)C(N)=O)NC(=O)[C@H](CC(C)C)NC(=O)[C@H](CCCCNC(=O)CCNC(=O)C[C@@H]2N=C(c3ccc(Cl)cc3)c3c(sc(C)c3C)-n3c(C)nnc32)NC(=O)[C@H](C)NC(=O)[C@H](Cc2c[nH]c3ccccc23)NC(=O)[C@H](Cc2ccc(O)cc2)NC(=O)[C@H](C)NC1=O)[C@@H](C)O the Cmax was 2100 nM (male C57BL/6 mouse, plasma; intravenous, 3 mg/kg).

Some of these lines once more:
With CC(=O)N[C@@H](CC(C)C)C(=O)N[C@H](C(=O)N[C@@H](Cc1ccccc1)C(=O)N[C@]1(C)CCCCCC/C=C/CCC[C@@](C)(C(=O)N[C@@H](C)C(=O)N[C@@H](C)C(=O)N[C@@H](C)C(=O)N[C@@H](C)C(=O)N[C@@H](C)C(=O)N[C@H](C)C(N)=O)NC(=O)[C@H](CC(C)C)NC(=O)[C@H](CCCCNC(=O)CCNC(=O)C[C@@H]2N=C(c3ccc(Cl)cc3)c3c(sc(C)c3C)-n3c(C)nnc32)NC(=O)[C@H](C)NC(=O)[C@H](Cc2c[nH]c3ccccc23)NC(=O)[C@H](Cc2ccc(O)cc2)NC(=O)[C@H](C)NC1=O)[C@@H](C)O the Cmax was 2100 nM (male C57BL/6 mouse, plasma; intravenous, 3 mg/kg).
